Measured values from different studies.
Lines come from different studies, so protocols differ. ± gives the spread as reported.

Compound	technique	species	sample	route	dose	time	tissue uptake
O=C([O-])CN1CCN(CC(=O)[O-])CCN(CC(=O)NC[C@H]2CC[C@H](C(=O)N[C@H](Cc3cnc4ccccc4c3)C(=O)NCCCC[C@H](NC(=O)N[C@@H](CCC(=O)O)C(=O)O)C(=O)O)CC2)CCN(CC(=O)[O-])CC1.[64Cu+2]	ex vivo gamma counting	22Rv1 tumour-bearing mice	heart	intravenous	0.74 MBq	2 h post-injection	4.8 %ID/g
N#C[C@@H]1CCCN1C(=O)CNC(=O)c1ccnc2ccc(OCCCN3CCN(C(=O)CCc4ccc5c(c4)CN4CCN6CC(=O)[O][68Ga-]([O]C(=O)C4)([O]5)[O]c4ccc(CCC(=O)N5CCN(CCCOc7ccc8nccc(C(=O)NCC(=O)N9CCC[C@H]9C#N)c8c7)CC5)cc4C6)CC3)cc12	–	BALB/c nude mice, U-87 MG xenograft	lung	–	–	1 h	2.38 ± 0.4 %ID/g
O=C(NCC1OC2CCC=CCCC2O1)c1ccc([18F])nc1 (stereo not shown)	–	healthy female BALB/c nude mice	pancreas	intravenous	7.4 MBq per mouse	120 min	0.3 ± 0.02 %ID/g
CCCC[C@H](NC(=O)COCCOCCNC(=O)CN1CCN(CC(=O)O)CCN(CC(=O)O)CC1)C(=O)N[C@H]1CC(=O)NCCCC[C@@H](C(N)=O)NC(=O)[C@H](Cc2c[nH]c3ccccc23)NC(=O)[C@H](CCCNC(=N)N)NC(=O)[C@@H](Cc2ccccc2)NC(=O)[C@H](Cc2c[nH]cn2)NC1=O [fluorine-18 labelled]	–	C57 mice B16-F10 melanoma	blood	intravenous	0.37 MBq	1 h	0.69 ± 0.17 %ID/g
O=C(NCC1OC2CCC=CCCC2O1)c1ccc(COCCOCCOCC[18F])cc1 (stereo not shown)	–	healthy female BALB/c nude mice	heart	intravenous	7.4 MBq per mouse	30 min	1.8 ± 0.7 %ID/g
CCCC[C@H](NC(=O)CNC(=O)CNC(=O)[C@H](CCCCNC(=O)[C@H](CC(=O)O)NC(=O)C(C)c1ccc(CC(C)C)cc1)NC(=O)CN1CCN(CC(=O)O)CCN(CC(=O)O)CCN(CC(=O)O)CC1)C(=O)N[C@H]1CC(=O)NCCCC[C@@H](C(N)=O)NC(=O)[C@H](Cc2c[nH]c3ccccc23)NC(=O)[C@H](CCCNC(=N)N)NC(=O)[C@@H](Cc2ccccc2)NC(=O)[C@H](Cc2c[nH]cn2)NC1=O (stereo partly shown) [lutetium-177 labelled]	–	C57 mice, tumour-bearing	brain	intravenous	0.037 MBq	4 h	0.04 ± 0.01 %ID/g
Cc1cc(C)n(CCN(CCN)CCCCCCNC(=O)[C@@H](N)Cc2c[nH]cn2)n1.[99Tc+].[C-]#[O+].[C-]#[O+].[C-]#[O+]	–	BALB/c nude mice, A549 xenograft	stomach	intravenous	–	24 h	0.4 ± 0.05 %IA/g
COc1ccc(Nc2nc(Nc3ccc(OCCOCCOCC[18F])cc3)ncc2Br)cc1	–	ICR mice, S180 tumour-bearing	muscle	intravenous	370 kBq	5 min	3.1 ± 0.05 %ID/g
Cc1cc(C)n(CCN(CCN)CCCCCCNC(=O)[C@@H](N)Cc2c[nH]c3ccccc23)n1.[99Tc+].[C-]#[O+].[C-]#[O+].[C-]#[O+]	–	BALB/c nude mice, A549 xenograft	blood	intravenous	–	15 min	1.8 ± 0.4 %IA/g
CCCC[C@H](NC(=O)CCCCCCCNC(=O)CN1CCN(CC(=O)O)CCN(CC(=O)O)CC1)C(=O)N[C@H]1CC(=O)NCCCC[C@@H](C(N)=O)NC(=O)[C@H](Cc2c[nH]c3ccccc23)NC(=O)[C@H](CCCNC(=N)N)NC(=O)[C@@H](Cc2ccccc2)NC(=O)[C@H](Cc2c[nH]cn2)NC1=O [fluorine-18 labelled]	–	C57 mice B16-F10 melanoma	pancreas	intravenous	0.37 MBq	2 h	0.18 ± 0.13 %ID/g
COc1ccc(Nc2nc(Nc3ccc(OCCOCC[18F])cc3)ncc2Br)cc1	–	ICR mice, S180 tumour-bearing	bone	intravenous	370 kBq	120 min	4.51 ± 0.71 %ID/g
CC(C)C[C@H](NC(=O)[C@@H](CCCCNC(=O)[C@@H](Cc1ccccc1)NC(=O)CCCCCCCNC(=O)CN1CCN(CC(=O)O)CCN(CC(=O)O)CCN(CC(=O)O)CC1)NC(=O)[C@H](Cc1ccc(O)cc1)NC(=O)[C@H](CO)NC(=O)[C@H](Cc1c[nH]c2ccccc12)NC(=O)[C@H](Cc1c[nH]cn1)NC(=O)[C@@H]1CCC(=O)N1)C(=O)N[C@@H](CCCNC(=N)N)C(=O)N1CCC[C@H]1C(=O)NCC(N)=O [indium-111 labelled]	–	male athymic nude mice, DU-145 prostate cancer xenograft	intestines	intravenous	0.037 MBq	4 h	2.37 ± 0.15 %ID
CCCC[C@H](NC(=O)CNC(=O)CNC(=O)[C@H](CCCCNC(=O)C(C)c1ccc(CC(C)C)cc1)NC(=O)CN1CCN(CC(=O)O)CCN(CC(=O)O)CCN(CC(=O)O)CC1)C(=O)N[C@H]1CC(=O)NCCCC[C@@H](C(N)=O)NC(=O)[C@H](Cc2c[nH]c3ccccc23)NC(=O)[C@H](CCCNC(=N)N)NC(=O)[C@@H](Cc2ccccc2)NC(=O)[C@H](Cc2c[nH]cn2)NC1=O (stereo partly shown) [lutetium-177 labelled]	–	C57 mice, tumour-bearing	kidneys	–	–	2 h	12.8 ± 2.45 %ID/g
